Experimental data from different studies.
Compare with care: the assays were run in different laboratories. pEC50: −log10 of the molar value.
Cell line: MDA-MB-231
Observed: cell growth or viability

Compound	method	concentration	time	endpoint	value
CCCOc1ccc2c(C)c(CC)c(=O)oc2c1C	MTT	500 µg/mL		viability	12.2%
NCC(=O)Nc1ccccc1/N=c1\cc(-c2ccc3c(c2)OCO3)oc2c(N)cccc12	CCK-8	1 µM		inhibition	-8.56%
N#CC(C(=O)Nc1cccc(C(F)(F)F)c1)=C1Sc2nc3ccc(S(=O)(=O)N4CCCC4)cc3nc2S1	MTT	6.25 µM	24 h	viability	68.3%
Nc1nc2ccc(-c3c/c(=N\c4ccccc4NC(=O)C4CCNC4)c4ccccc4o3)cc2o1 (centres unmarked)	CCK-8	1 µM		inhibition	68.7%
O=C(Nc1ccc(Oc2nc3ccccc3n3cnnc23)cc1)Nc1cccc(Cl)c1	MTT	6.25 µM	24 h	viability	82.5%
COc1cccc2c1C(=O)c1c(O)c3c(c(O)c1C2=O)C[C@@](O)(C(=O)CO)C[C@@H]3O[C@H]1C[C@H](N)[C@H](O)[C@H](C)O1	MTT		48 h	pEC50	5.25
CNC(=O)c1cc(Oc2ccc(NC(=O)Nc3ccc(Cl)c(C(F)(F)F)c3)cc2)ccn1	MTT	6.25 µM	24 h	viability	55.9%
O=C1CCCCC1=C1Sc2nc3ccc(S(=O)(=O)N4CCCC4)cc3nc2S1	MTT	6.25 µM	24 h	viability	55.7%
CCc1c(C)c2ccc(OCC(=O)NNC(=S)Nc3ccccc3)c(C)c2oc1=O	MTT	31.25 µg/mL		viability	63%
NCC(=O)Nc1ccccc1/N=c1\cc(-c2ccc3c(c2)OCCO3)oc2cc(F)ccc12	CCK-8	1 µM		inhibition	-2.6%
O=C(Nc1ccccc1)Nc1ccc(Oc2nc3ccccc3n3cnnc23)cc1	MTT	1.56 µM	24 h	viability	100%
COc1ccc2/c(=N/c3ccccc3NC(=O)N3CCOCC3)cc(-c3ccc4c(c3)OCCO4)oc2c1	CCK-8	1 µM		inhibition	6.88%
CCOc1ccc2c(C)c(CC)c(=O)oc2c1C	MTT	62.5 µg/mL		viability	96.1%
NCCC(=O)Nc1ccccc1/N=c1\cc(-c2ccc3oc(N)nc3c2)oc2ccccc12	CCK-8	1 µM		inhibition	29.3%
CCOC(=O)C(C(C)=O)=C1Sc2nc3ccc(S(=O)(=O)N4CCCC4)cc3nc2S1	MTT	12.5 µM	24 h	viability	20.9%
COCCC(=O)Nc1ccccc1/N=c1\cc(-c2ccc3nc(N)oc3c2)oc2ccccc12	CCK-8	1 µM		inhibition	-8.52%
CC(=NNC(=O)COc1ccc2c(C)c(Cc3ccccc3)c(=O)oc2c1C)c1ccc(Br)cc1	MTT	62.5 µg/mL		viability	39.8%
O=C(Nc1ccc(Cl)cc1)Nc1ccc(Oc2nc3ccccc3n3cnnc23)cc1	MTT	12.5 µM	24 h	viability	88.7%
CCc1c(C)c2ccc(OCC(=O)NN=Cc3ccc([N+](=O)[O-])cc3)cc2oc1=O	MTT	125 µg/mL		viability	23.2%
COc1cccc(NC(=O)Nc2ccc(Oc3nc4ccccc4n4cnnc34)cc2)c1	MTT	12.5 µM	24 h	viability	56.8%

Some of these lines once more:
Compound	method	concentration	time	endpoint	value
CCOc1ccc2c(C)c(CC)c(=O)oc2c1C	MTT	62.5 µg/mL		viability	96.1%
N#CC(C(=O)Nc1cccc(C(F)(F)F)c1)=C1Sc2nc3ccc(S(=O)(=O)N4CCCC4)cc3nc2S1	MTT	6.25 µM	24 h	viability	68.3%
